Published values gathered from unrelated publications.
A part holds a random share of what one study measured. “And” joins repeats or separate records; there may be more than shown.
Sequence of UniProt Q9Y2H1 (whole entry, looked up): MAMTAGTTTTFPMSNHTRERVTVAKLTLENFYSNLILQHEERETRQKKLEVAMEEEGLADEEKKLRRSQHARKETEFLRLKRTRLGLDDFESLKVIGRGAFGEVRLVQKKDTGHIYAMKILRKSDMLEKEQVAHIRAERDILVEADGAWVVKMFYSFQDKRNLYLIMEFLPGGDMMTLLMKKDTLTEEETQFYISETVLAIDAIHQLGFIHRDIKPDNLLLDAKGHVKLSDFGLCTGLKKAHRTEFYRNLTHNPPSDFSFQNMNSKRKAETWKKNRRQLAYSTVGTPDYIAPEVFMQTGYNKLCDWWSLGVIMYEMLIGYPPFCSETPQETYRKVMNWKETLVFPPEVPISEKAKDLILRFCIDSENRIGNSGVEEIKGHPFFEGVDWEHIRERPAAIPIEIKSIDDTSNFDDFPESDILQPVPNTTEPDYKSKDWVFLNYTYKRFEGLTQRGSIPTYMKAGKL
Sequence of UniProt P11802 (whole entry, looked up): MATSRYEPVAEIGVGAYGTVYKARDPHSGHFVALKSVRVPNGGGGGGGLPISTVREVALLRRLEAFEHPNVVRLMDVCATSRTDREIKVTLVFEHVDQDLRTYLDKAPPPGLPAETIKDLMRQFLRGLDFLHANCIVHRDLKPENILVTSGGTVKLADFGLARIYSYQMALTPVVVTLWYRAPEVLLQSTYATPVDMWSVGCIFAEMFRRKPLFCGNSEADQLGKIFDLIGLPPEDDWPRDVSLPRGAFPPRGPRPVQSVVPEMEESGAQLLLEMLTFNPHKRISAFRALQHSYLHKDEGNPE

Block 1 — effect on: binding; technique: competition with immobilised ligand; tested at: 1 µM
SMILES: COc1cc(-c2nc3ccc(C(=O)NCCCN4CCN(c5cccc(C)c5C)CC4)cc3n2C2CCC2)cc(OC)c1OC
target | remaining binding [%]
Serine/threonine-protein kinase 16 (STK16, Homo sapiens, UniProt O75716) | 92
Casein kinase I isoform gamma-1 (CSNK1G1, Homo sapiens, UniProt Q9HCP0) | 93
Fibroblast growth factor receptor 2 (FGFR2, Homo sapiens, UniProt P21802) | 96
Serine/threonine-protein kinase B-raf (BRAF, Homo sapiens, UniProt P15056) | 97
3-phosphoinositide-dependent protein kinase 1 (PDPK1, Homo sapiens, UniProt O15530) | 80
Serine/threonine-protein kinase WNK3 (WNK3, Homo sapiens, UniProt Q9BYP7) | 98
Maternal embryonic leucine zipper kinase (MELK, Homo sapiens, UniProt Q14680) | 94
Cyclin-dependent kinase 4, with cyclin D1 (CDK4, Homo sapiens, UniProt P11802) | 93
Serine/threonine-protein kinase OSR1 (OXSR1, Homo sapiens, UniProt O95747) | 90
Epidermal growth factor receptor (EGFR, Homo sapiens, UniProt P00533, A750P/del747-749) | 58
Rho-associated protein kinase 2 (ROCK2, Homo sapiens, UniProt O75116) | 89
Inhibitor of nuclear factor kappa-B kinase subunit epsilon (IKBKE, Homo sapiens, UniProt Q14164) | 71
Serine/threonine-protein kinase PAK 4 (PAK4, Homo sapiens, UniProt O96013) | 93
Tyrosine-protein kinase BTK (BTK, Homo sapiens, UniProt Q06187) | 94
Serine/threonine-protein kinase 38-like (STK38L, Homo sapiens, UniProt Q9Y2H1) | 74
Serine/threonine-protein kinase 35 (STK35, Homo sapiens, UniProt Q8TDR2) | 93
LIM domain kinase 1 (LIMK1, Homo sapiens, UniProt P53667) | 92
Phosphatidylinositol 4,5-bisphosphate 3-kinase catalytic subunit gamma isoform (PIK3CG, Homo sapiens, UniProt P48736) | 87

Block 2 — technique: KINOMEscan; notes: unit not given; relative to: DMSO
Structure (SMILES): CCOc1ccc2nc(Sc3nc(Nc4ccc(OC)cc4)nc(N4CCOCC4)n3)sc2c1
Target: 1-phosphatidylinositol 3-phosphate 5-kinase (PIKFYVE, Homo sapiens, UniProt Q9Y2I7)
Sequence of UniProt Q9Y2I7 (whole entry, looked up): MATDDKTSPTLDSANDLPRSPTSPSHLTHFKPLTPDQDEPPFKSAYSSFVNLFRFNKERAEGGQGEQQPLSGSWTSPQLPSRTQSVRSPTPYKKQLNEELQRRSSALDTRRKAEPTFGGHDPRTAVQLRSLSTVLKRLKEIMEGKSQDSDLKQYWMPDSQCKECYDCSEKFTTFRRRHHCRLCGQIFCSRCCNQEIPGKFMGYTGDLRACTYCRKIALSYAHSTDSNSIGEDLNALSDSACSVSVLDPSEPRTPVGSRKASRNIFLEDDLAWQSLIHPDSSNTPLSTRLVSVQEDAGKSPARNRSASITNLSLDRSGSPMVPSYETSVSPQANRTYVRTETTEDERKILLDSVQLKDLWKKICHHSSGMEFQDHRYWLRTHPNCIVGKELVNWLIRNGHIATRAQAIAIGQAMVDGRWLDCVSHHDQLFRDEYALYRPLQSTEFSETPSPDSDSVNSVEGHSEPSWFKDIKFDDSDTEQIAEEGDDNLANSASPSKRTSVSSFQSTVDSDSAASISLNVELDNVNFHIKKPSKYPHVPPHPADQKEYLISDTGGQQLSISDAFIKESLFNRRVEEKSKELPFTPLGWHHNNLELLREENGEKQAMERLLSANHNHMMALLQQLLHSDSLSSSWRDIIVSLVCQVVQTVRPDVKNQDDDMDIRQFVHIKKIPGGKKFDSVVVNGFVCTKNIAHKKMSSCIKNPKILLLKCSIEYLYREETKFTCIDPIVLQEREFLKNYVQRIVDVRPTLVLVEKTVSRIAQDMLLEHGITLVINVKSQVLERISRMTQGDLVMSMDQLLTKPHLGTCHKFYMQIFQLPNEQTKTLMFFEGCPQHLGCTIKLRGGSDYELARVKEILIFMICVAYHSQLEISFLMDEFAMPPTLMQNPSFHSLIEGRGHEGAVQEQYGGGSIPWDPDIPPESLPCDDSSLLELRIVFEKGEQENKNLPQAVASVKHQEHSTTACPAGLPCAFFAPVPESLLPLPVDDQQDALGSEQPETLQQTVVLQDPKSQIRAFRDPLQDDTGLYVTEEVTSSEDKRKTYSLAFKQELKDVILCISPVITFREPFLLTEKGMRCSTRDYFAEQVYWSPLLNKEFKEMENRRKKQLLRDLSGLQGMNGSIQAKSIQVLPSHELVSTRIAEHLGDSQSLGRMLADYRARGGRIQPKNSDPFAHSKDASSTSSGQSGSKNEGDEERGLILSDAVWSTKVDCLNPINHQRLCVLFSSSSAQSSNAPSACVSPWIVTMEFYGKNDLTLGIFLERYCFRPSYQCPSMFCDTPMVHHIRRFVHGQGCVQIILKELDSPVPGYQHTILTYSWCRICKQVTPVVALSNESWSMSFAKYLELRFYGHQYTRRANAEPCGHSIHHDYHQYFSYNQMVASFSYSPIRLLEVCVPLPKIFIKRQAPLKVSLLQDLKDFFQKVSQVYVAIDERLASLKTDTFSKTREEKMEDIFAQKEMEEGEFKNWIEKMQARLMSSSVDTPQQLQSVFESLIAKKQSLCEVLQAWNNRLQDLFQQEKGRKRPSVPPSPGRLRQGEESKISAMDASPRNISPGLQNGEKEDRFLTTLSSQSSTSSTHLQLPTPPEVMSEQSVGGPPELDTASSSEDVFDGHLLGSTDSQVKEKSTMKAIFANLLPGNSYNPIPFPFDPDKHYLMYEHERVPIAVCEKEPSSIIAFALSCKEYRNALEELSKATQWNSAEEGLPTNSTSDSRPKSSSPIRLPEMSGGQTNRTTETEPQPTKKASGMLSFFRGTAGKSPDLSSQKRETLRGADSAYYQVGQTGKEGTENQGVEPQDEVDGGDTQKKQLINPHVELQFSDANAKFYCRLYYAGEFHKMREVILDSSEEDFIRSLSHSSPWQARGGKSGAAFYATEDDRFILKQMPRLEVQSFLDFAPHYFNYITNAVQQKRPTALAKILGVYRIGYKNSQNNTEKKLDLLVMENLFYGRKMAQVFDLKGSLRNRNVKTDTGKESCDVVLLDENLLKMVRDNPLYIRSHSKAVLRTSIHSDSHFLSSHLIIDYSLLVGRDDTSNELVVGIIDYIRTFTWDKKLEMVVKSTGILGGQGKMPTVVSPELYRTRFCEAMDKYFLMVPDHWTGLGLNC
tested at | remaining binding
4.53 nM | 1.07 and 0.936
123 nM | 0.516 and 0.61
4.57 nM | 0.971 and 1.02
3300 nM | 0.0052 and 0.0085
0.168 nM | 0.696 and 0.855
370 nM | 0.192 and 0.213
40.7 nM | 0.744 and 0.704
41.2 nM | 0.799 and 0.954

Block 3 — tested at: 1 µM
SMILES: CC[C@@]1(c2cccc(-c3c(F)cncc3OC)c2)C2=C(Nc3n[nH]cc31)[C@H](F)C(C)(C)CC2=O (single isomer, unassigned)
target | effect on | technique | relative to | remaining binding [%]
Rhodopsin kinase GRK7 (GRK7, Homo sapiens, UniProt Q8WTQ7) | binding | competition with immobilised ligand | – | 92
Focal adhesion kinase 1 (PTK2, Homo sapiens, UniProt Q05397) | kinase binding | KINOMEscan | DMSO control | 86
BMP-2-inducible protein kinase (BMP2K, Homo sapiens, UniProt Q9NSY1) | kinase binding | KINOMEscan | DMSO control | 62
Citron Rho-interacting kinase (CIT, Homo sapiens, UniProt O14578) | binding | competition with immobilised ligand | – | 96
Discoidin domain-containing receptor 2 (DDR2, Homo sapiens, UniProt Q16832) | kinase binding | KINOMEscan | DMSO control | 54
Mitogen-activated protein kinase kinase kinase 1 (MAP3K1, Homo sapiens, UniProt Q13233) | kinase binding | KINOMEscan | DMSO control | 62
Casein kinase I isoform gamma-3 (CSNK1G3, Homo sapiens, UniProt Q9Y6M4) | binding | competition with immobilised ligand | – | 74
Phosphatidylinositol 4-phosphate 5-kinase type-1 gamma (PIP5K1C, Homo sapiens, UniProt O60331) | binding | competition with immobilised ligand | – | 100
Interleukin-1 receptor-associated kinase 1 (IRAK1, Homo sapiens, UniProt P51617) | kinase binding | KINOMEscan | DMSO control | 100
Serine/threonine-protein kinase 38-like (STK38L, Homo sapiens, UniProt Q9Y2H1) | kinase binding | KINOMEscan | DMSO control | 98
Ephrin type-A receptor 7 (EPHA7, Homo sapiens, UniProt Q15375) | kinase binding | KINOMEscan | DMSO control | 82
Phosphatidylinositol 4,5-bisphosphate 3-kinase catalytic subunit alpha isoform (PIK3CA, Homo sapiens, UniProt P42336, C420R) | kinase binding | KINOMEscan | DMSO control | 88
Epidermal growth factor receptor (EGFR, Homo sapiens, UniProt P00533, L858R/T790M) | binding | competition with immobilised ligand | – | 76
Leucine-rich repeat serine/threonine-protein kinase 2 (LRRK2, Homo sapiens, UniProt Q5S007, G2019S) | kinase binding | KINOMEscan | DMSO control | 74
Serine/threonine-protein kinase WNK3 (WNK3, Homo sapiens, UniProt Q9BYP7) | kinase binding | KINOMEscan | DMSO control | 80
Tyrosine-protein kinase ITK/TSK (ITK, Homo sapiens, UniProt Q08881) | kinase binding | KINOMEscan | DMSO control | 79
cAMP-dependent protein kinase catalytic subunit beta (PRKACB, Homo sapiens, UniProt P22694) | binding | competition with immobilised ligand | – | 84
Myosin light chain kinase family member 4 (MYLK4, Homo sapiens, UniProt Q86YV6) | binding | competition with immobilised ligand | – | 100

Block 4 — effect on: kinase activity
SMILES: CNc1ncc2cc(-c3cc(OC)cc(OC)c3Cl)c(=O)n(CCc3ccc(NC(=O)C(C#N)=CC(C)(C)N4CCOCC4)cc3)c2n1
target | tested at | inhibition
Cyclin-dependent kinase 4, with cyclin D (CDK4, Homo sapiens, UniProt P11802) | 1 µM | 30%
Protein kinase C theta type (PRKCQ, Homo sapiens, UniProt Q04759) | 1 µM | 4%
Dual specificity protein kinase CLK4 (CLK4, Homo sapiens, UniProt Q9HAZ1) | 0.1 µM | -2%
Mitogen-activated protein kinase 9 (MAPK9, Homo sapiens, UniProt P45984) | 0.1 µM | 5%
Homeodomain-interacting protein kinase 3 (HIPK3, Homo sapiens, UniProt Q9H422) | 1 µM | -1%
Serine/threonine-protein kinase 16 (STK16, Homo sapiens, UniProt O75716) | 0.1 µM | 3%
Dual specificity protein kinase CLK2 (CLK2, Homo sapiens, UniProt P49760) | 0.1 µM | -5%
PAS domain-containing serine/threonine-protein kinase (PASK, Homo sapiens, UniProt Q96RG2) | 1 µM | 4%
Mitogen-activated protein kinase kinase kinase 7, with TAB1 (MAP3K7, Homo sapiens, UniProt O43318) | 1 µM | -1%
MAP kinase-activated protein kinase 5 (MAPKAPK5, Homo sapiens, UniProt Q8IW41) | 1 µM | 2%
Ephrin type-A receptor 5 (EPHA5, Homo sapiens, UniProt P54756) | 0.1 µM | 8%
RAC-gamma serine/threonine-protein kinase (AKT3, Homo sapiens, UniProt Q9Y243) | 1 µM | 2%
Serine/threonine-protein kinase SIK2 (SIK2, Homo sapiens, UniProt Q9H0K1) | 1 µM | 6%
Ephrin type-B receptor 2 (EPHB2, Homo sapiens, UniProt P29323) | 1 µM | 1%
Serine/threonine-protein kinase PLK2 (PLK2, Homo sapiens, UniProt Q9NYY3) | 1 µM | 8%
Leucine-rich repeat serine/threonine-protein kinase 2 (LRRK2, Homo sapiens, UniProt Q5S007, G2019S) | 0.1 µM | -3%
Rhodopsin kinase GRK7 (GRK7, Homo sapiens, UniProt Q8WTQ7) | 0.1 µM | 10%

Block 5 — effect on: thermal unfolding; technique: differential scanning fluorimetry; tested at: 5.5 µM; reading: higher = more unfolded
Compound: C[C@@H]1CN(c2ccc(-c3cc(C(=O)NCCOCCOCCOCCOCCOCCOCCNC(=O)/C=C/c4[nH]cc(C(=O)N[C@@H](CC(N)=O)c5ccc(F)c(Cl)c5)c4-c4ccc(Cl)cc4F)ccc3F)cc2NC(=O)c2ccc(F)cc2C(F)(F)F)C[C@H](C)N1C
DCAF1: DDB1- and CUL4-associated factor 1 (DCAF1, Homo sapiens, UniProt Q9Y4B6)
Sequence of UniProt Q9Y4B6 (whole entry, looked up): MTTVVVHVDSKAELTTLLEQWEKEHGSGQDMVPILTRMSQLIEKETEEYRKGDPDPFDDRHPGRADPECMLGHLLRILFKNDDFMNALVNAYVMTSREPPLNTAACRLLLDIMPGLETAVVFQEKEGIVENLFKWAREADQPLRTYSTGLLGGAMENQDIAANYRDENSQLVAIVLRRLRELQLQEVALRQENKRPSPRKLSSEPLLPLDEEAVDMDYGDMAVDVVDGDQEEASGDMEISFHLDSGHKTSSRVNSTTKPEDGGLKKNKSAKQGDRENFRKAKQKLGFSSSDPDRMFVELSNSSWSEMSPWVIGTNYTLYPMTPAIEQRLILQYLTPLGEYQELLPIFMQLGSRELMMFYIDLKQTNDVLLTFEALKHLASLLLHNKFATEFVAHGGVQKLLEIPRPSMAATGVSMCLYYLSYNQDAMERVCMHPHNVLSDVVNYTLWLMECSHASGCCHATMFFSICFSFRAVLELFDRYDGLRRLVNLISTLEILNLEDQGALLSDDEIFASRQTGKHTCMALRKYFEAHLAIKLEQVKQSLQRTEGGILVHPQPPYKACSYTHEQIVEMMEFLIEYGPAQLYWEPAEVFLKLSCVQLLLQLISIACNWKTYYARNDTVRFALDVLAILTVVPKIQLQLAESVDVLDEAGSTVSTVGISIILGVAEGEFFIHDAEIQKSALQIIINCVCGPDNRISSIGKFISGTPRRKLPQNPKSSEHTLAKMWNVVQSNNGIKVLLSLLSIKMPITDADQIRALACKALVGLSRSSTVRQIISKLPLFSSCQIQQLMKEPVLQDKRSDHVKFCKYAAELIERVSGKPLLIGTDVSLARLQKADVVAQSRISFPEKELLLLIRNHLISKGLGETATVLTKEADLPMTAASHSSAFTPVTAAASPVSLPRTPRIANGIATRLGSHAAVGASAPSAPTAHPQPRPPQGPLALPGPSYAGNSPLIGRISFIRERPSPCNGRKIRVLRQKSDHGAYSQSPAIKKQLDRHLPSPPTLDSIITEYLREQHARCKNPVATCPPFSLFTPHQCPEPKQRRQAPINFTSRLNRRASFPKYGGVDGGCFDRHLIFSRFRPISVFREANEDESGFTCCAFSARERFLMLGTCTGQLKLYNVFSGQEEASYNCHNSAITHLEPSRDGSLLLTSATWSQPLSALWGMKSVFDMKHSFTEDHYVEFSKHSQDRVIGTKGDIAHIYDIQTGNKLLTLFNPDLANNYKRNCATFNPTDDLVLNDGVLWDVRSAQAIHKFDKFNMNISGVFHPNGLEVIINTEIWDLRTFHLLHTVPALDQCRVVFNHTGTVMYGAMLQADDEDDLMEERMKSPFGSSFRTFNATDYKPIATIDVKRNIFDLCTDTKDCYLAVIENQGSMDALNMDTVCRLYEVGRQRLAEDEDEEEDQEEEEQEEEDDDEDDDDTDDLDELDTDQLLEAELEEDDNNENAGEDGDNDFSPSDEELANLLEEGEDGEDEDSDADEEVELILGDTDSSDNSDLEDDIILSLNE
WDR5: WD repeat-containing protein 5 (WDR5, Homo sapiens, UniProt P61964)
target | temperature | SYPRO Orange fluorescence [a.u.]
DCAF1 | 68.01 °C | 50300
DCAF1 | 55.01 °C | 27000
DCAF1 | 45 °C | 14500
WDR5 | 68.21 °C | 22200
DCAF1 | 30.8 °C | 8640
WDR5 | 42.4 °C | 14400
WDR5 | 29.8 °C | 13600
WDR5 | 69.81 °C | 26600
DCAF1 | 37.6 °C | 10900
WDR5 | 72.01 °C | 35600
WDR5 | 78.81 °C | 62400

Block 6 — host: female CD-1 mouse; sample: plasma; route: oral; dose: 10 mg/kg
Structure (SMILES) | Cmax
Cc1ccc(O)c(C)c1-c1cnc2[nH]c(-c3cnc(N4CCC(CN5CCC(c6ccc(NC7CCC(=O)NC7=O)cc6F)CC5)CC4)nc3)cc2c1C#N (stereo not shown) | 169 ng/mL
Cc1ccc(O)c(C)c1-c1cnc2[nH]c(-c3cnc(N4CCC(CN5CCN(c6ccc(NC7CCC(=O)NC7=O)cc6F)CC5)CC4)nc3)cc2c1C#N (stereo not shown) | 405 ng/mL
Cc1ccc(O)c(C)c1-c1cnc2[nH]c(-c3cnc(N4CC5(CC(CN6CCN(c7ccc(NC8CCC(=O)NC8=O)cc7F)CC6)C5)C4)nc3)cc2c1C#N (stereo not shown) | 175 ng/mL

Block 7 — cell line: U-87 MG; tested at: concentration not given; relative to: DMSO
Compound: CCN1/C(=C/C=C2\CCCC(/C=C/C3=[N+](CC)c4ccccc4C3(C)C)=C2NCCCCCCCCN2CCC(Nc3nc4ccccc4n3Cc3ccc(F)cc3)CC2)C(C)(C)c2ccccc21
item | log2 fold change
HASPIN mRNA | -1.9
DNAH10 mRNA | 1.89
RIOK3 mRNA | 0.895
FBXO28 mRNA | 0.979
F2RL1 mRNA | -1.78
CYP26B1 mRNA | -2.95
RNF112 mRNA | -2.39
HOXD4 mRNA | -0.958
NDC1 mRNA | -1.11
TRPC4 mRNA | -1.72
SQSTM1 mRNA | 1.36
NEXN mRNA | -2.32

Single results of other studies — action: inhibitor; cells: CHO-BC cells
Target: Sodium-dependent neutral amino acid transporter B(0)AT1 (SLC6A19, Homo sapiens, UniProt Q695T7)
Sequence of UniProt Q695T7 (whole entry, looked up): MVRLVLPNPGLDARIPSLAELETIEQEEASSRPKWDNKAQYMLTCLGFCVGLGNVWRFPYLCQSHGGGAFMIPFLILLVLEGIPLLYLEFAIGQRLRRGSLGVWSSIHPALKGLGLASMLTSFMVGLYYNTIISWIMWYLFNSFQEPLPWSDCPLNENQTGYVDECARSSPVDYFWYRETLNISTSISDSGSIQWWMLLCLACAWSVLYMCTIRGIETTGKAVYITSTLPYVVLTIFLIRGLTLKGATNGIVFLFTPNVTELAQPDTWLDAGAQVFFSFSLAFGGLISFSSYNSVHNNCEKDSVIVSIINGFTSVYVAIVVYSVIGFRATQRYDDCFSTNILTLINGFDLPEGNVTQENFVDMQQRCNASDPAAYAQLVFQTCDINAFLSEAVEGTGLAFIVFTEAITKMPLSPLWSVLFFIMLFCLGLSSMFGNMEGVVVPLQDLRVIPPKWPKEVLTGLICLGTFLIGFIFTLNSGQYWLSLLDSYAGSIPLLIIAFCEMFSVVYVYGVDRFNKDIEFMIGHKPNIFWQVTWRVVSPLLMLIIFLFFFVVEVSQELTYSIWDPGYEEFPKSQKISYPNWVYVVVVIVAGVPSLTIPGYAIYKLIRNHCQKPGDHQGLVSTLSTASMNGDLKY
Structure (SMILES) | assay | setting | how to read | quantity | result
CCNC(=O)COc1ccc(Br)c(C)c1 | FLIPR membrane potential | 0.003 µM, unit not given | relative to: uninhibited cells | remaining transport activity | 0.887
CC(C)NC(=O)COc1ccc(Br)cc1 | L-[14C]leucine uptake | 0.1 µM, 6 min, unit not given, added: GPNA 3 mM, JPH203 3 µM | relative to: uninhibited cells | remaining transport activity | 1
CCCCNC(=O)COc1cc(C)c(Cl)c(C)c1 | FLIPR membrane potential | 30 µM | – | normalised transport activity | 1.03
CC(C)NC(=O)COc1ccc2ccccc2c1 | FLIPR membrane potential | 0.001 µM, unit not given | relative to: uninhibited cells | remaining transport activity | 1.04

Excerpt of the above (block 7):
item | log2 fold change
HASPIN mRNA | -1.9
DNAH10 mRNA | 1.89
RIOK3 mRNA | 0.895
FBXO28 mRNA | 0.979
F2RL1 mRNA | -1.78
CYP26B1 mRNA | -2.95
RNF112 mRNA | -2.39
HOXD4 mRNA | -0.958
NDC1 mRNA | -1.11
TRPC4 mRNA | -1.72
SQSTM1 mRNA | 1.36
NEXN mRNA | -2.32
